Published values gathered from unrelated publications.
± gives the spread as reported.
Sample: plasma

| Compound | assay | system | setting | MRT |
| --- | --- | --- | --- | --- |
| COc1cccc(N2CCN(C3=Nc4c(F)cccc4[C@H](CC(=O)O)N3c3cc(C(F)(F)F)ccc3OC)CC2)c1 | UHPLC-MS/MS | healthy women | intravenous infusion, 960 mg single dose, 60 min infusion, HPβCD formulation | 6.74 ± 1.21 h |
| CO/N=C1\C[C@]2(C[C@@H]3C[C@@H](C/C=C(\C)C[C@@H](C)/C=C/C=C4\CO[C@@H]5[C@H](O)C(C)=C[C@@H](C(=O)O3)[C@]45O)O2)O[C@H](/C(C)=C/C(C)C)[C@H]1C | HPLC, non-compartmental | Corriedale lambs, parasitized | oral, 0.2 mg/kg | 85.9 ± 21.6 h |
| CC(C)NC(=O)COc1cccc(-c2nc(Nc3ccc4[nH]ncc4c3)c3ccccc3n2)c1 | – | male C57BL/6 mouse | oral, 100 mg/kg | 5.78 h |
| C=C1[C@H](CO)[C@@H](O)C[C@@H]1n1cnc2c(=O)[nH]c(N)nc21 | – | male Sprague-Dawley rat | oral, 1 mg/kg, together with: CdG 1 mg/kg | 1.97 ± 0.56 h |
| CCN(CC)Cc1cc(Nc2ccnc3cc(Cl)ccc23)ccc1O | – | rat, Wistar, male | oral, 60 mg/kg, together with: myricetin 5 mg/kg iv | 6.32 ± 0.85 h |
| CC(C)=CCC[C@](C)(O[C@@H]1O[C@H](CO)[C@@H](O)[C@H](O)[C@H]1O)[C@H]1CC[C@]2(C)[C@@H]1[C@H](O)C[C@@H]1[C@@]3(C)CC[C@H](O)C(C)(C)[C@@H]3[C@@H](O[C@@H]3O[C@H](CO)[C@@H](O)[C@H](O)[C@H]3O[C@@H]3O[C@@H](C)[C@H](O)[C@@H](O)[C@H]3O)C[C@]12C | – | Sprague Dawley rats, male | oral, 45 mg/kg, aqueous solution, together with: co-dosed pure ginsenoside mixture | 12.6 ± 7.9 h |
| O=c1c(O)c(-c2ccc(O)cc2)oc2cc(OS(=O)(=O)O)cc(O)c12 | – | FVB mice, male, Mrp1^−/− | oral, 10 mg/kg of kaempferol | 0.955 ± 0.398 h |
| CC(C)=CCC[C@](C)(O[C@@H]1O[C@H](CO)[C@@H](O)[C@H](O)[C@H]1O)[C@H]1CC[C@]2(C)[C@@H]1[C@H](O)C[C@@H]1[C@@]3(C)CC[C@H](O[C@@H]4O[C@H](CO)[C@@H](O)[C@H](O)[C@H]4O[C@@H]4O[C@H](CO)[C@@H](O)[C@H](O)[C@H]4O)C(C)(C)[C@@H]3CC[C@]12C | – | Sprague Dawley rats, male | oral, 42 mg/kg, aqueous solution, together with: co-dosed pure ginsenoside mixture | 11.9 ± 4.6 h |
| Nc1ccn([C@@H]2O[C@H](CO)[C@@H](O)C2(F)F)c(=O)n1 | – | male BALB/c mouse | intravenous, 38 µmol/kg | 0.41 h |

For quick reference, copied from above:
| Compound | assay | system | setting | MRT |
| --- | --- | --- | --- | --- |
| C=C1[C@H](CO)[C@@H](O)C[C@@H]1n1cnc2c(=O)[nH]c(N)nc21 | – | male Sprague-Dawley rat | oral, 1 mg/kg, together with: CdG 1 mg/kg | 1.97 ± 0.56 h |
